Measured values from different studies.
Parts stem from different laboratories: compare values within a part only.

Sample 1
Target: RNA binding protein fox-1 homolog 2, RRM domain, GST-SBP tag (RBFOX2, Homo sapiens, UniProt O43251-10, residues 100-194)
Method: RNA Bind-n-Seq
Form: RNA
Matrix: in vitro
Concentration: 365 nM
Setting: natural RNA segment, single round, ends assumed
Baseline: no-protein control
Reading: higher = stronger binding
Target sequence (chain): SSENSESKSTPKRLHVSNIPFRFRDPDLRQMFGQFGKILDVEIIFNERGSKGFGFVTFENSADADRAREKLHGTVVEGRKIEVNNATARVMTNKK
Sequence	RBNS enrichment (R)
GGGAGUUCUACAGUCCGACGAUCUGGCUGCCCUGUGCAGGCUGUCAUCAGAGUUCUCCAUGUGGGUCAAUACCUGCACCCCCAGGAAGAGGGCAUUCCCCAGCAGGCCUCUGCAGAUCCUGCGGGUGGGAGGAUGGAAUUCUCGGGUGCCAA	0.328
GGGAGUUCUACAGUCCGACGAUCCGCCCGUUGUGCGAGAACCACUUCCACGCACGACGCGGCUCGCUGUGCGCCACGUGUGGCCUCCCUGUGACCGGCCGCUGCGUGUCGGCCCUGGGUCGCCGCUUCCACCCUGGAAUUCUCGGGUGCCAA	0.256
GGGAGUUCUACAGUCCGACGAUCCAAGAAAACUACCUGGUGAUGCAAUUUUUUUUUUUAAUUUAACUUUAAAAUAAAUGCUGCAUUUGGUAAAGCUGGCAGUGGAACCAGUUGGAUGACCCAGCUCCUGUCUCUGGAAUUCUCGGGUGCCAA	0.278
GGGAGUUCUACAGUCCGACGAUCCAGCUACUUGGAAUUGGAAAUCGCCUGAACCCAGGAGGCGGAGGUUGCAGGGAGGGAGACUGCACCACUGCACUUCAGCCUGGGUGACAGAGGGAGACUCUGUCUUAAAAUGGAAUUCUCGGGUGCCAA	0.647

Sample 2
Target: Histone acetyltransferase KAT6A, both winged helices, GST fusion (KAT6A, Homo sapiens, UniProt Q92794, residues 1-181)
Method: protein binding microarray
Form: double-stranded DNA, one strand shown
Matrix: in vitro
Concentration: not given
Setting: 8-mer, flanks averaged, mean of 2 arrays, mostly near background
Baseline: not given
Reading: higher = stronger binding
Target sequence (chain): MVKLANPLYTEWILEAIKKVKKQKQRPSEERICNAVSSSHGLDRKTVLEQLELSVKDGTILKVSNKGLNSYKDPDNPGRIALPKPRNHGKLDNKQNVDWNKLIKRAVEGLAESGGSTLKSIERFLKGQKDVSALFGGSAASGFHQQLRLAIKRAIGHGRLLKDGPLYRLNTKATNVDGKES
Sequence	E-score
CCGGTGCA	0.161
CATTAATA	-0.052
CCCACGGA	0.176
GAGCAAAC	-0.179
CGAAGTAA	-0.0737

Sample 3
Target: RING finger protein unkempt homolog, zinc fingers 1-6, GST-SBP tag (UNK, Homo sapiens, UniProt Q9C0B0, residues 30-357)
UniProt Q9C0B0, sequence (30-357, looked up): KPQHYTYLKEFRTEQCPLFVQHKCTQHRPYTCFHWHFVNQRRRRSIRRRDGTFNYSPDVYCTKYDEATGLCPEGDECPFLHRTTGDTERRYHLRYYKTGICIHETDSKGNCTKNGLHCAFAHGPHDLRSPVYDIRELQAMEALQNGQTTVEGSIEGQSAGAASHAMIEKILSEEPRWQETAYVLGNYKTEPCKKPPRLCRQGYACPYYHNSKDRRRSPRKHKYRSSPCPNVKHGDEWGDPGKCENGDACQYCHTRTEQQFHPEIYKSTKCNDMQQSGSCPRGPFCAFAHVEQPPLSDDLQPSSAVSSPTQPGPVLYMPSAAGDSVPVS
Method: RNA Bind-n-Seq
Form: RNA
Matrix: in vitro
Concentration: not given
Setting: RNA with constant flanks, human-mouse chimeric sites, ends assumed
Baseline: input RNA pool
Reading: higher = stronger binding
Sequence	bound/input enrichment
GGGAGUUCUACAGUCCGACGAUCUUGAAAACUGAUUCAAGUAAGUUUGAGUAUCACAAUGUUAGCUUUCUAAUUCCAUAAAGAUAGUUUUUUUUUACAGUUUAUAAUCUGACAUCACCCCAGCGCCAUUUGUAAAGAGCAACUCAACAGAGGAUUGAGCAUCA	8.46 ratio
GGGAGUUCUACAGUCCGACGAUCUAAGUUAUUUUGUACAGCUUUGUAAAUUGUAUAGCUUAAUUUGUAAACAUGUUUAUUUUGUUUGGGUAAUUUGGUUCAUUAAGUACAUAGCUAAGGUAAUGAACAUCUUUUUCAGUAAUUCAACAGAGGAUUGAGCAUCA	0.365 ratio
GGGAGUUCUACAGUCCGACGAUCAACAGAUUGUCUUUAAGCAUUCCAAGCAAUGCUUGGGGGGUGAUCAUUGUUGCCCAUGUGCCUUCUGACUGAGCUUUAAUGCUGUUCCAUGUUACAUCUUUCCUUCACUCCAGAAUUGUUCAACAGAGGAUUGAGCAUCA	0.164 ratio
GGGAGUUCUACAGUCCGACGAUCUCCUGGUGCGACAGCGUUGCAGGACGAUGUGAACAAAAACUCAAAGCGGACCCUCUAUUGUAGUUCUUGAUUCUCGAAAUGUGCUAUUAUUGUUUGUCUUUUUUUUUUUUUUUUUAAAGACAACAGAGGAUUGAGCAUCA	1.19 ratio

Mixed results
Molecule	target	test	system	conditions	scale	quantity	result
PhoQ, residues 284 288 289 292 302 303 TVTVVA	PhoP, residues 12 14 15 18 19 LWHVM (Escherichia coli, UniProt P23836)	Sort-seq, measured: YFP reporter	E. coli	PhoQ-PhoP variant library, together with: 10 µM Mg2+	baseline: high Mg2+ state, higher = stronger signaling	fold induction	3.08
